Assay results of several laboratories.
Protocols differ between the studies behind these lines. ± marks the error that the study gave.
cyp121: Mycocyclosin synthase (cyp121, Mycobacterium tuberculosis, UniProt P9WPP7)
KCNJ13 M125R: Inward rectifier potassium channel 13 (KCNJ13, Homo sapiens, UniProt O60928, M125R)
SUMO-activating enzyme subunit 2 with SAE1: SUMO-activating enzyme subunit 2, with SAE1 (Homo sapiens, UniProt Q9UBT2)

Chains of the proteins cited; added tags and fusions are not shown. Residues count along the entry.
UniProt O60928, whole entry M125R: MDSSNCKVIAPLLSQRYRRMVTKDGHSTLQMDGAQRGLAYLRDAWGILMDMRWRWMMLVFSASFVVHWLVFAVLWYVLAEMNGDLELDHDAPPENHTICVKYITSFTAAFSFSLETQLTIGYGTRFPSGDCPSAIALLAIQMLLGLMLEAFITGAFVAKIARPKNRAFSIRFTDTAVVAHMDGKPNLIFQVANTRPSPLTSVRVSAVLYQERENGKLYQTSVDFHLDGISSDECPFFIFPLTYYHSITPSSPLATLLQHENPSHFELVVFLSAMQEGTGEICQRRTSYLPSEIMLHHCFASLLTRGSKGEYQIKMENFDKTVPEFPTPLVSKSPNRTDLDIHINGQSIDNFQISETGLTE
UniProt Q00960, 27-1482 limits assumed: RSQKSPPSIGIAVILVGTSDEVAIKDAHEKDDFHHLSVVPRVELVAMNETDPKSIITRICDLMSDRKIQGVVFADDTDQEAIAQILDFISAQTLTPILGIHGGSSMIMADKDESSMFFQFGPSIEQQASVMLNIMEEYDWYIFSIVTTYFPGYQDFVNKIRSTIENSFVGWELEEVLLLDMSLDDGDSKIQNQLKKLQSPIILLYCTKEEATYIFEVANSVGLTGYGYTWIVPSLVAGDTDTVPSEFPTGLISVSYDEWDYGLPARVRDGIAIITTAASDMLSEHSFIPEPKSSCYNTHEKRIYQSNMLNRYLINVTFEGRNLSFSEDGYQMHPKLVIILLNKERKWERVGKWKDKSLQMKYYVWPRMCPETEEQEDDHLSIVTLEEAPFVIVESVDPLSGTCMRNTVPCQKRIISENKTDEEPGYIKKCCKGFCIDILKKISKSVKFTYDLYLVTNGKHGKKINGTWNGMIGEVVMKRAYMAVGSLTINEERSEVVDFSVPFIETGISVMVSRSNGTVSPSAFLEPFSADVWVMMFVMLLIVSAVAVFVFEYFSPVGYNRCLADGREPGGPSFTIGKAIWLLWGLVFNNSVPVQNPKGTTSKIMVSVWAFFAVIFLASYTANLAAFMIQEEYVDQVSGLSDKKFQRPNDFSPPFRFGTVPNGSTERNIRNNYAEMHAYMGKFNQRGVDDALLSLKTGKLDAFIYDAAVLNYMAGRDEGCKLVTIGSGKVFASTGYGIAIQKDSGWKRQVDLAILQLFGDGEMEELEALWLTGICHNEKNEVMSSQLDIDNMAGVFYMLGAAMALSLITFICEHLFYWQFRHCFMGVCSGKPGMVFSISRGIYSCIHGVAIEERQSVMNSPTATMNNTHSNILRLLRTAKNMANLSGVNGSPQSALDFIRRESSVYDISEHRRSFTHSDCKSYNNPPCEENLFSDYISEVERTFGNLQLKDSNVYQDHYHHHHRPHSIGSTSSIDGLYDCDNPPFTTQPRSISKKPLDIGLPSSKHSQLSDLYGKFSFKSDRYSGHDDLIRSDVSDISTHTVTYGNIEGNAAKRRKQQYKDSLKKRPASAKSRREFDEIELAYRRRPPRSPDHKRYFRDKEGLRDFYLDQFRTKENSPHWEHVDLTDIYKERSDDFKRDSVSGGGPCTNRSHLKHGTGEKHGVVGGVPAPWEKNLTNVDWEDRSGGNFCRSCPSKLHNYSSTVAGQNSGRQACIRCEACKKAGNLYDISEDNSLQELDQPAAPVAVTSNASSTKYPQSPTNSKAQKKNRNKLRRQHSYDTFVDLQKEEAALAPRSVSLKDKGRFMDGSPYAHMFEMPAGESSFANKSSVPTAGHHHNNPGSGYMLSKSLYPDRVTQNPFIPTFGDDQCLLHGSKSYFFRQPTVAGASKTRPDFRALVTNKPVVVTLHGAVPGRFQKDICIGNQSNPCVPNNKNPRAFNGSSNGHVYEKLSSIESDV
UniProt P19650, whole entry: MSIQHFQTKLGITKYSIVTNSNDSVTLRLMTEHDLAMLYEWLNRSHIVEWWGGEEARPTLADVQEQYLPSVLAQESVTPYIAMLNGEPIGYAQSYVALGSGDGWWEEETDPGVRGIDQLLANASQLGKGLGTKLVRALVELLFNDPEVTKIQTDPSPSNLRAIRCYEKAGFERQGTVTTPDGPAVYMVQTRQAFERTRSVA
UniProt P06802, 85-906 limits assumed: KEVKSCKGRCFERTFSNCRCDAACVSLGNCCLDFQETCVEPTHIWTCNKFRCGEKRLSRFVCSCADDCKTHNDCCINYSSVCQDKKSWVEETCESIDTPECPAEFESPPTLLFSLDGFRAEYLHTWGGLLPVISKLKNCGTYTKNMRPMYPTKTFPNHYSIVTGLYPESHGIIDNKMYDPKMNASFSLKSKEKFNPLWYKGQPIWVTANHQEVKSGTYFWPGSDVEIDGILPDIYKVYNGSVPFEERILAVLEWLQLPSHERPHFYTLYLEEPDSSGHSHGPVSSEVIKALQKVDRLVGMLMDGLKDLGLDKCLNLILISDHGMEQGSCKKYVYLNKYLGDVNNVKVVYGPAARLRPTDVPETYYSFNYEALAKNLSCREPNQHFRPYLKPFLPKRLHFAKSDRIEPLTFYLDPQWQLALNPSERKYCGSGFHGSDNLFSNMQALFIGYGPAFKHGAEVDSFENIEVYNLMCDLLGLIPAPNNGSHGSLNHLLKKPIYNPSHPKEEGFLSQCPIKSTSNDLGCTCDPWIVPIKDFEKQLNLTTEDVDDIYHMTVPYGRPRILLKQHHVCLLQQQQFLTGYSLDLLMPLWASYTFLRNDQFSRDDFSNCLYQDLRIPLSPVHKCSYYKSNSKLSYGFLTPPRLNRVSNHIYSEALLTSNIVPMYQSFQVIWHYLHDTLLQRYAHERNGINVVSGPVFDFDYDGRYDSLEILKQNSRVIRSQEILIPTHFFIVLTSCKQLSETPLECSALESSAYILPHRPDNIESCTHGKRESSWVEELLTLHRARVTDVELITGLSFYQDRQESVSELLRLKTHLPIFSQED
UniProt Q9WMX2, 2420-3010 limits assumed: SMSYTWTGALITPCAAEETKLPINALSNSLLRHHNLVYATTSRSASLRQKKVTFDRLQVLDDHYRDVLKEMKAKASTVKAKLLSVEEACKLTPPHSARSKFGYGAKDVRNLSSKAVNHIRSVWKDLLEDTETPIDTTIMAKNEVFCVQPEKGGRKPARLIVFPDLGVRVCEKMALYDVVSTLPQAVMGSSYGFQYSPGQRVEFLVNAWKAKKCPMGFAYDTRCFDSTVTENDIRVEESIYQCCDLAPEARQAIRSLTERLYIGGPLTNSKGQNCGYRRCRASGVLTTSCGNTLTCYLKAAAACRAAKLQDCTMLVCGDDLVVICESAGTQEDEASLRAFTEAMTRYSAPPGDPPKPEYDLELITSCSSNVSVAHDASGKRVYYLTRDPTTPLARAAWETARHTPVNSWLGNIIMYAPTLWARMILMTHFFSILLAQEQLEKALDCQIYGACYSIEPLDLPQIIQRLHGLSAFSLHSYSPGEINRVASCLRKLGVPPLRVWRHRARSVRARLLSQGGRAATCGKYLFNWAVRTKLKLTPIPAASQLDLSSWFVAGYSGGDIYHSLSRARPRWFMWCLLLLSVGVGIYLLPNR
UniProt Q8E0N2, whole entry: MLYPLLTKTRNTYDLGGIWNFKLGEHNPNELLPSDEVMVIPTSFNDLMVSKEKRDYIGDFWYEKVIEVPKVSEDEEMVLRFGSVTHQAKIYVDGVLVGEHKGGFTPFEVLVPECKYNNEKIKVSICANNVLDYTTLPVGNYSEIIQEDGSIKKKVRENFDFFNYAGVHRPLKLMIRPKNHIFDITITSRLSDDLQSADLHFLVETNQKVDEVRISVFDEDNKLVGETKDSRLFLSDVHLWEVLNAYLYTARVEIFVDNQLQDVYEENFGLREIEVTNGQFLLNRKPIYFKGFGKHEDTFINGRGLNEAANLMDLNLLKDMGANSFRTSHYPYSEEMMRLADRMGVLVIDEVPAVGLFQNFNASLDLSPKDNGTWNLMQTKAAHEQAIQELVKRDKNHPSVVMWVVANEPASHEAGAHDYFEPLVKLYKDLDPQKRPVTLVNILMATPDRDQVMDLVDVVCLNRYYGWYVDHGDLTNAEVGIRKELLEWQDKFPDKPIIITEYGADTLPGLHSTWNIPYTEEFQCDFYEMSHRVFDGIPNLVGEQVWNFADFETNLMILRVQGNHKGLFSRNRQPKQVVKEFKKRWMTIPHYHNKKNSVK
UniProt Q9BJF5, 1-507: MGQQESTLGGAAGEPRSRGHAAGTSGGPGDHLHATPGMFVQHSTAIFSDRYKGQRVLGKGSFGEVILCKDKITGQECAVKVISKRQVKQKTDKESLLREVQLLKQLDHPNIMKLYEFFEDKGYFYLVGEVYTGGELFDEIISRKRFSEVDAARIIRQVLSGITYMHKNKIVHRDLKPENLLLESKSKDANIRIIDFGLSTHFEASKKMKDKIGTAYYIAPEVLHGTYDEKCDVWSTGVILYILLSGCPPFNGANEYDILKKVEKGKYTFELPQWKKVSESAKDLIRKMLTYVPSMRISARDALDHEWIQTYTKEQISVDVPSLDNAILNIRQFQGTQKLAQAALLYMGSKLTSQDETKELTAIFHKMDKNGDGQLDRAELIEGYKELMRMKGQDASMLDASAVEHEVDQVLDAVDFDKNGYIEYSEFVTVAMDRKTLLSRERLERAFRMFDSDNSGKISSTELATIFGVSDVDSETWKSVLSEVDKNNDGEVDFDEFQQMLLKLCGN
UniProt Q07812, whole entry: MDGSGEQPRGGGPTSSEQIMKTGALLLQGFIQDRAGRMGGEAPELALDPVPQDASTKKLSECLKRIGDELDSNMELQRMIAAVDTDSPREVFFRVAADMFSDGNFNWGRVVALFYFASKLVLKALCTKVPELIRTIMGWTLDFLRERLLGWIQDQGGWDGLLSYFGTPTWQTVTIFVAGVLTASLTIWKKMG
UniProt O00519, whole entry: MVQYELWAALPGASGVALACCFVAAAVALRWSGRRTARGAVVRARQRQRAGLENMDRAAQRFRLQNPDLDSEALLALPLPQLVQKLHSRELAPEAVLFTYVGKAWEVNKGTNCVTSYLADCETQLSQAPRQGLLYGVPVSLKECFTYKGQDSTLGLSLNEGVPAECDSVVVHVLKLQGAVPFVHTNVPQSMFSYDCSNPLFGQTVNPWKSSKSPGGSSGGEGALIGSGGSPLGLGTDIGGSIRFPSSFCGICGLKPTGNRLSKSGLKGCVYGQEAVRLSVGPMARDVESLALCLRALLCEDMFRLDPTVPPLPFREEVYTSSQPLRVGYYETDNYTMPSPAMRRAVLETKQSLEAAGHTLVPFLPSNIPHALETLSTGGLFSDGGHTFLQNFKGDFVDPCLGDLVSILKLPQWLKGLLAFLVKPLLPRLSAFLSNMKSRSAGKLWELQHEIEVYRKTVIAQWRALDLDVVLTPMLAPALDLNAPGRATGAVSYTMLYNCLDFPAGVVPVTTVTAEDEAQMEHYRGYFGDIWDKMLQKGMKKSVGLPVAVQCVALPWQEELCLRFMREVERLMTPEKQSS
UniProt P18654, 399-740 limits assumed: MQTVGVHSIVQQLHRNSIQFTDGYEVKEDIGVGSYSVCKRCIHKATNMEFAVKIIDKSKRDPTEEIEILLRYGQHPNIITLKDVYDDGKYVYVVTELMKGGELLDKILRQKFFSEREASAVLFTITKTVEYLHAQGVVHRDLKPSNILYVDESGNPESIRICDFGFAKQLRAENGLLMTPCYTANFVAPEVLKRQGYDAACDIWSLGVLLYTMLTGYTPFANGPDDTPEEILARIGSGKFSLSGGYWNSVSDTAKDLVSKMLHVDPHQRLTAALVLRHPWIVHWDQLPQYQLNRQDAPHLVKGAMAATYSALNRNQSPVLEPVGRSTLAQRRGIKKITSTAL
UniProt P06873, 106-384 limits assumed: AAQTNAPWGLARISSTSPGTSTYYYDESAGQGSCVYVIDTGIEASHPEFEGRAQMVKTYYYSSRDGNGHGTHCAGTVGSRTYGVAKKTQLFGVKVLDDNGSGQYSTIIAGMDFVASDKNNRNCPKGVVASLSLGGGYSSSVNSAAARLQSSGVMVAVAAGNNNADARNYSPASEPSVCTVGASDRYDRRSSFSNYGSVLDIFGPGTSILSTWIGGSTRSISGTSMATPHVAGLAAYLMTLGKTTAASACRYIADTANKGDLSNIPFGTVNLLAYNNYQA

Structure (SMILES) | target | assay | test system | conditions | measurement | value
COc1cc(C)cc(Sc2cc(C(=O)N3Cc4ccccc4C3)ccc2O)c1 | Heat shock protein HSP 90-alpha (HSP90AA1, Homo sapiens, UniProt P07900) | binding, fluorescence polarization | – | with: FITC-geldanamycin tracer | IC50 | 0.9 ± 0.02 µM
C=CC(c1ccc(-c2ccc(OC)c(C)c2)cc1)n1ccnc1 (single isomer, unassigned) | cyp121 | – | – | enantiomer E1 | Kd | 6.1 µM
CC(C)Oc1c(NC(=O)c2ccc(NC(=O)[C@H](CC(N)=O)NC(=O)c3cc(F)c(/N=N/c4c(Cl)cc(C#N)cc4Cl)c(F)c3)cc2)ccc(C(=O)N/N=C/c2c(F)cc(C(=O)O)cc2F)c1O | DNA gyrase (gyrA/gyrB, Escherichia coli, UniProt P0AES4+P0AES6) | DNA supercoiling, inhibitor | – | 30 min, 37 °C, after 1 h irradiation at 365 nm | IC50 | > 25 µM
Cc1ccc(S(=O)(=O)N(CCOc2ccc(C(=N)N)cc2)CCOc2ccc(C(=N)N)cc2)cc1 | Grin1/Grin2a/Grin2b, MK-801 channel binding site (Rattus norvegicus, UniProt P35439+Q00959+Q00960) | – | – | pH 7 | IC50 | 0.24 ± 0.08 µM
O=[N+]([O-])c1ccc(N=Nc2c(O)ccc3cc(S(=O)(=O)O)ccc23)cc1 | Bcl-2-related protein A1 (Mus musculus, UniProt Q07440, C113S/P104K) | binding, fluorescence polarization | – | with: FITC-Noxa peptide | IC50 | 59.2 µM
O=C(NC1CCN(Cc2cc(Cl)c3cccnc3c2O)CC1)c1ccc2ccccc2c1 | KCNJ13 M125R | ion current, inhibitor, thallium flux | T-REx-HEK293 | – | IC50 | 12.3 µM
O=C(NCCN1CCC2(CC1)NCNC2=O)c1ccc2ccccc2c1 | Phospholipase D1 (Homo sapiens, UniProt Q13393) | enzyme activity, cell-based | – | – | IC50 | > 30 µM
NC[C@@H](NC[C@@H]1CCCN1C[C@@H](CO)NC[C@@H](NCCc1ccc(Cl)c(Cl)c1)c1ccccc1)c1ccccc1 | Aminoglycoside N(6')-acetyltransferase type 1 (aacA4, Klebsiella pneumoniae, UniProt P19650) | acetyltransferase activity, inhibitor | – | – | IC50 | 6.5 µM
COc1cc(Nc2ncnc(-c3cccnc3Nc3cc(NC(=O)c4cccc(C(F)(F)F)c4)ccc3C)n2)cc(OC)c1OC | Serine/threonine-protein kinase 10 (STK10, Homo sapiens, UniProt O94804) | enzyme activity, inhibitor | – | catalytic domain | IC50 | < 0.02 µM
CNc1nc(N2CCNCC2)c2sc3nc(N4CCOCC4)ccc3c2n1 | Beta-glucuronidase (uidA, Escherichia coli, UniProt P05804) | enzyme activity, inhibitor | – | – | IC50 | 0.022 ± 0.007 µM
C=CC[C@H](Nc1ccc(Cl)cc1)C12C=CC(O1)C(C(=O)OC)=C2C(=O)OC (stereo partly shown) | SUMO-activating enzyme subunit 2 with SAE1 | SUMOylation, inhibitor, AlphaScreen | – | with: SUMO1-RanGAP1 conjugation | IC50 | 4.15 µM
CC(=O)N[C@H]1[C@H](O[C@@H]2[C@@H](OC[C@H]3O[C@@H](O[C@H]4[C@H](O)[C@H]5N=C(C)S[C@H]5O[C@@H]4CO)[C@@H](O)[C@@H](O[C@H]4O[C@H](CO)[C@@H](O)[C@H](O)[C@@H]4O[C@@H]4O[C@H](CO)[C@@H](O[C@@H]5O[C@H](CO)[C@H](O)[C@H](O)[C@H]5O)[C@H](O)[C@H]4NC(C)=O)[C@@H]3O)O[C@H](CO)[C@@H](O)[C@@H]2O)O[C@H](CO)[C@@H](O[C@@H]2O[C@H](CO)[C@H](O)[C@H](O)[C@H]2O)[C@@H]1O | endoS2 (Streptococcus pyogenes, UniProt T1WGN1) | N-glycan hydrolysis, inhibitor, HPAEC-PAD | – | 10 min, pH 7.4, 30 °C, with: sialylated rituximab substrate | IC50 | 0.57 µM
COC(=O)C1=C(C(=O)OC)C2([C@H](C)Nc3ccc(Cl)cc3)C=CC1O2 (stereo partly shown) | SUMO-activating enzyme subunit 2 with SAE1 | SUMOylation, inhibitor, AlphaScreen | – | with: SUMO1-RanGAP1 conjugation | IC50 | 11.3 µM
CC(C)Cc1cc(C(=O)O)nc(O)n1 | Metallo-beta-lactamase type 2 (blaNDM-1, Klebsiella pneumoniae, UniProt C7C422) | – | – | 10 min preincubation, with: FC5 fluorogenic substrate | IC50 | > 1000 µM
CC(=O)N1CCC(C(=O)N(CCCN2C3CCC2CC(NS(=O)(=O)c2ccc(C(=O)NCCOCCOCC(=O)NCCOCCOCC(=O)NCCOCCOCC(=O)NCCOCCOCC(N)=O)cc2)C3)c2ccc(C)c(Cl)c2)CC1 (stereo not shown) | C-C chemokine receptor type 5 (CCR5, Homo sapiens, UniProt P51681) | calcium mobilization, antagonist | CHO expressing Gα16 | with: RANTES 10 nM | IC50 | 0.0274 µM
COc1cccc2c(N3CCC(CCP(=O)(O)O)CC3)ncnc12 | Ectonucleotide pyrophosphatase/phosphodiesterase family member 1 (Enpp1, Mus musculus, UniProt P06802) | cGAMP degradation, radiolabelled cGAMP TLC | mouse plasma | with: cGAMP 5 µM | IC50 | 0.004 µM
CO[C@H]1[C@H](O[C@H]([C@H]2O[C@@H](n3ccc(=O)[nH]c3=O)[C@H](O)[C@@H]2O)[C@H](NCCCNC(=O)[C@@H](NC(=O)[C@@H](NC(=O)N[C@H](C(=O)O)C(C)C)[C@@H]2CCNC(=N)N2)[C@@H](OC(=O)CCCCCCCCCCCCNC(=N)N)C(C)C)C(N)=O)O[C@H](CN)[C@H]1O | MurX (Mycolicibacterium smegmatis) | enzyme activity, inhibitor | P-60 membrane fraction | – | IC50 | 0.035 ± 0.003 µM
O=c1ccn([C@@H]2O[C@H](COP(=O)(O)OP(=O)(O)OP(=O)(O)O)[C@@H](O)[C@]2(F)Br)c(=O)[nH]1 | Genome polyprotein, NS5B polymerase (Hepatitis C virus genotype 1b, UniProt Q9WMX2) | polymerase activity, inhibitor | genotype 1b | – | IC50 | 0.64 µM
c1cnc2sc3c(N4CCNCC4)ncnc3c2c1 | Beta-glucuronidase (Streptococcus agalactiae serotype V, UniProt Q8E0N2) | enzyme activity, inhibitor | – | – | IC50 | 13 ± 3 µM

Structure (SMILES) | target | assay | test system | conditions | measurement | value
NC(=O)c1cc(Sc2cccc(C(F)(F)F)c2)nc2ccccc12 | Calmodulin-domain protein kinase 1 (CDPK1, Toxoplasma gondii, UniProt Q9BJF5) | kinase activity, inhibitor, ELISA | – | with: syntide-2 substrate, ATP 25 µM | IC50 | > 20 µM
c1nc(N2CCNCC2)c2sc3nc(N4CCOCC4)ccc3c2n1 | Beta-glucuronidase (Lachnospira eligens, UniProt C4Z6Z2) | enzyme activity, inhibitor | – | – | IC50 | 0.6 ± 0.1 µM
CN1CCN(CC(O)CN2c3ccccc3Sc3ccccc32)CC1 (stereo not shown) | Apoptosis regulator BAX (BAX, Homo sapiens, UniProt Q07812) | membrane permeabilization, inhibitor | ANTS/DPX liposomes | 400 nM BAX, with: 30 nM tBID | IC50 | 7.9 µM
C=C(CC/C=C(\C)CCC=C(C)C)CN1[C@@H](COP(=O)(O)CP(=O)(O)O)[C@]1(C)CC/C=C(\C)CCC=C(C)C (relative stereo) | Squalene synthase ERG9 (Saccharomyces cerevisiae, UniProt P29704) | enzyme activity, inhibitor | – | pH 7.2, with: 1.5 mM pyrophosphate, 100 µM [3H]FPP | IC50 | 17.4 ± 5.3 µM
NCc1ccc(-c2ncc(OCC3CCNCC3)nc2-c2ccc(-c3cn[nH]c3)cc2)cc1 | Genome polyprotein, NS2B-NS3 protease (ZIKV, UniProt A0A024B7W1) | enzyme activity, inhibitor | – | Gly4-Ser-Gly4-linked NS2B-NS3 protease | IC50 | 0.71 ± 0.07 µM
O=C(NO)c1cccc(F)c1 | Histone deacetylase 6, CD2 catalytic domain (hdac6, Danio rerio, UniProt F8W4B7) | enzyme activity, inhibitor, fluorogenic | – | 30 min, with: Ac-RHK(Ac)K(Ac)-AMC | IC50 | 3.6 ± 0.7 µM
O=C(CCCOc1cc(=O)oc2ccccc12)N1CCN(Cc2ccc(F)cc2)CC1 | Cholinesterase (BCHE, Equus caballus, UniProt P81908) | enzyme activity, inhibitor, Ellman | – | – | IC50 | 1.59 ± 0.02 µM
N=C(N)c1ccc(OCCSCCOc2ccc(C(=N)N)cc2)cc1 | Glutamate NMDA receptor; Grin1/Grin2b, ifenprodil binding site (Grin1/Grin2b, Rattus norvegicus, UniProt P35439+Q00960) | – | – | pH 7.4 | IC50 | 19.2 µM
O=C(NC1CCN(Cc2cc(Cl)c3cccnc3c2O)CC1)c1ccccc1Cl | KCNJ13 M125R | ion current, inhibitor, thallium flux | T-REx-HEK293 | – | IC50 | 15.8 µM
Cc1ccc(S(=O)(=O)N2CCC(C)(C(=O)Nc3ccc4cc(C(=O)O)ccc4c3)CC2)c(C)c1 | Fatty-acid amide hydrolase 1 (FAAH, Homo sapiens, UniProt O00519) | – | – | pH 8, 37 °C, with: OMP substrate 50 µM | IC50 | 52 µM
Cc1ccc(-c2c(C=C(C#N)c3ccc(C#N)cc3)n(CCCO)c3ncnc(N)c23)cc1 | Ribosomal protein S6 kinase alpha-3, C-terminal kinase domain (Rps6ka3, Mus musculus, UniProt P18654) | kinase activity, inhibitor | – | C-terminal kinase domain | IC50 | 0.77 µM
COC(=O)C1=C(C(=O)OC)C2([C@@H](Cc3ccccc3)Nc3ccc(C)cc3)C=CC1O2 (stereo partly shown) | SUMO-activating enzyme subunit 2 with SAE1 | SUMOylation, inhibitor, AlphaScreen | – | with: SUMO1-RanGAP1 conjugation | IC50 | 2.75 µM
C/C=C(\NC(=O)[C@@H](NC(=O)[C@@H](NC(=O)[C@H](C)NC(=O)C/C(C)=C/Cl)[C@@H](C)CC)[C@@H](C)O)C(=O)N[C@H]1CC[C@@H](O)N([C@@H](Cc2ccccc2)C(=O)N(C)[C@@H](Cc2ccc(O)cc2)C(=O)N[C@H](C(=O)O)C(C)C)C1=O | Proteinase K (PROK, Engyodontium album, UniProt P06873) | enzyme activity, inhibitor | – | 30 min, pH 7.4, 22 °C, with: Suc-Ala-Ala-Pro-Phe-AMC | IC50 | > 5 µM
C=CC(=O)Nc1cc(NC(=O)CCl)cc(C(=O)n2c3ccccc3c3ccccc32)c1 | ALK tyrosine kinase receptor/Echinoderm microtubule-associated protein-like 4 (Homo sapiens, UniProt Q9HC35+Q9UM73) | ALK autophosphorylation, immunoprecipitation, immunoblot | BaF3 | 3 h | IC50 | 2.3 µM
CCOc1ccc2cc(-c3nn(C(C)(C)C)c(N)c3C(N)=O)cnc2c1 | Calcium-dependent protein kinase 1 (Besnoitia besnoiti, UniProt A0A290U7L2) | enzyme activity, inhibitor, Kinase-Glo luminescence | – | 90 min, 30 °C, with: 10 µM ATP | IC50 | 0.012 µM
CCCCC(c1ccc(-c2ccccc2)cc1)n1ccnc1 (stereo not shown) | cyp121 | binding | – | – | Kd | 1.9 ± 0.39 µM
O=C(NC1CCN(Cc2cc(Cl)c3cccnc3c2O)CC1)c1cccc(Br)c1 | KCNJ13 M125R | ion current, inhibitor, thallium flux | T-REx-HEK293 | – | IC50 | 4 µM
NC(=O)c1ccc(-c2ncc(OCC3CCNCC3)nc2-c2ccc(-c3ccoc3)cc2)cc1 | Genome polyprotein, NS2B-NS3 protease (pol, Dengue virus type 3, UniProt Q6YMS4) | enzyme activity, inhibitor | – | dengue virus type 3 NS2B-NS3 protease | IC50 | 0.93 ± 0.02 µM

For quick reference, copied from above:
Structure (SMILES) | target | assay | test system | conditions | measurement | value
COc1cc(C)cc(Sc2cc(C(=O)N3Cc4ccccc4C3)ccc2O)c1 | Heat shock protein HSP 90-alpha (HSP90AA1, Homo sapiens, UniProt P07900) | binding, fluorescence polarization | – | with: FITC-geldanamycin tracer | IC50 | 0.9 ± 0.02 µM
C=CC(c1ccc(-c2ccc(OC)c(C)c2)cc1)n1ccnc1 (single isomer, unassigned) | cyp121 | – | – | enantiomer E1 | Kd | 6.1 µM
CC(C)Oc1c(NC(=O)c2ccc(NC(=O)[C@H](CC(N)=O)NC(=O)c3cc(F)c(/N=N/c4c(Cl)cc(C#N)cc4Cl)c(F)c3)cc2)ccc(C(=O)N/N=C/c2c(F)cc(C(=O)O)cc2F)c1O | DNA gyrase (gyrA/gyrB, Escherichia coli, UniProt P0AES4+P0AES6) | DNA supercoiling, inhibitor | – | 30 min, 37 °C, after 1 h irradiation at 365 nm | IC50 | > 25 µM
